Experimental data collected from several papers.
Each line is one published result; not all experiments were run side by side. ± marks the error that the study gave.
FGFR3 isoform IIIc: FGFR3 isoform IIIc (unknown, UniProt Q61851)
Chain of UniProt Q61851 (whole entry, looked up): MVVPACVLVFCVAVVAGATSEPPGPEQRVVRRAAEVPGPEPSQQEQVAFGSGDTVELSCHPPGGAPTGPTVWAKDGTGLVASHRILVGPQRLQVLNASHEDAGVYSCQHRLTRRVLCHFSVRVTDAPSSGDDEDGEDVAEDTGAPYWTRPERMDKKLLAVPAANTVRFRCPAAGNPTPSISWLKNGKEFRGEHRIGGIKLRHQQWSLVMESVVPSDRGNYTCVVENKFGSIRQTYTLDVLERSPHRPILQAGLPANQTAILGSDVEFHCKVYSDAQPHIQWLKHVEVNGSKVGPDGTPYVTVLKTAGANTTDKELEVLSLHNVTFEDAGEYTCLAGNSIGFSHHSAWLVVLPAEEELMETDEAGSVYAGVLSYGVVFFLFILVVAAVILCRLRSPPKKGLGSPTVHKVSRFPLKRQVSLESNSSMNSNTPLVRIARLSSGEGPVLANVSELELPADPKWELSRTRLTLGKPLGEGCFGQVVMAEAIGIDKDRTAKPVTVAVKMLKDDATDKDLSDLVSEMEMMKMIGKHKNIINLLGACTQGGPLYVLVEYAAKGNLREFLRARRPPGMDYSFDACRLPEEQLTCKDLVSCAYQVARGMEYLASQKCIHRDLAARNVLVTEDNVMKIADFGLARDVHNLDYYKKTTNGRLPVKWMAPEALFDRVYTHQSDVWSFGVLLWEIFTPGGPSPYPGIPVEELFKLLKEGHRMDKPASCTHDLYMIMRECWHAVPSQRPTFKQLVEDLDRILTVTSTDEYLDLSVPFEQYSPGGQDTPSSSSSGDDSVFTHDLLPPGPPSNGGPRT
Rbpj: Rbpj 53-474 (Mus musculus, UniProt P31266)
Chain of UniProt P31266 (whole entry, looked up): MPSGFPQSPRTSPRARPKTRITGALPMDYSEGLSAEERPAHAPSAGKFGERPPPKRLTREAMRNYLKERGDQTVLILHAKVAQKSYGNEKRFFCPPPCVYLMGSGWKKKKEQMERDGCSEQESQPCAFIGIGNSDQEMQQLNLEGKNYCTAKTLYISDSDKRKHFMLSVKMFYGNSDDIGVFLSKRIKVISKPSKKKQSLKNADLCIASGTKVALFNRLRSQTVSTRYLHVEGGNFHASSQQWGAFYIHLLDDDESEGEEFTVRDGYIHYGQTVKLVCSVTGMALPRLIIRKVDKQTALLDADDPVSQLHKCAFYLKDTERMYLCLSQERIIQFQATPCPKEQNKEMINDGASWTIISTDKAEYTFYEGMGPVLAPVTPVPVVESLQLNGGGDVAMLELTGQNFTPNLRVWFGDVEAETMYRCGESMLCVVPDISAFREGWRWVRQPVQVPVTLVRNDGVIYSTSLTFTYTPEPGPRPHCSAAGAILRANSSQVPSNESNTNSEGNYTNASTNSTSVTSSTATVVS
B1: FGF6 (Homo sapiens, UniProt P10767); chain SPAGTRANNTLLDSRGWGTLLSRSRAGLAGEIAGVNWESGYLVGIKRQRRLYCNVGIGFHLQVLPDGRISGTHEENPYSLLEISTVERGVVSLFGVRSALFVAMNSKGRLYATPSFQEECKFRETLLPNNYNAYESDLYQGTYIALSKYGRVKRGSKVSPIMTVTHFLPRI
B2: RAD30/POL30 binary complex (Saccharomyces cerevisiae); Cy3 on PCNA; chain 1 MSKFTWKELIQLGSPSKAYESSLACIAHIDMNAFFAQVEQMRCGLSKEDPVVCVQWNSIIAVSYAARKYGISRMDTIQEALKKCSNLIPIHTAVFKKGEDFWQYHDGCGSWVQDPAKQISVEDHKVSLEPYRRESRKALKIFKSACDLVERASIDEVFLDLGRICFNMLMFDNEYELTGDLKLKDALSNIREAFIGGNYDINSHLPLIPEKIKSLKFEGDVFNPEGRDLITDWDDVILALGSQVCKGIRDSIKDILGYTTSCGLSSTKNVCKLASNYKKPDAQTIVKNDCLLDFLDCGKFEITSFWTLGGVLGKELIDVLDLPHENSIKHIRETWPDNAGQLKEFLDAKVKQSDYDRSTSNIDPLKTADLAEKLFKLSRGRYGLPLSSRPVVKSMMSNKNLRGKSCNSIVDCISWLEVFCAELTSRIQDLEQEYNKIVIPRTVSISLKTKSYEVYRKSGPVAYKGINFQSHELLKVGIKFVTDLDIKGKNKSYYPLTKLSMTITNFDIIDLQKTVVDMFGNQVHTFKSSAGKEDEEKTTSSKADEKTPKLECCKYQVTFTDQKALQEHADYHLALKLSEGLNGAEESSKNLSFGEKRLLFSRKRPNSQHTATPQKKQVTSSKNILSFFTRKK; chain 2 MLEAKFEEASLFKRIIDGFKDCVQLVNFQCKEDGIIAQAVDDSRVLLVSLEIGVEAFQEYRCDHPVTLGMDLTSLSKILRCGNNTDTLTLIADNTPDSIILLFEDTKKDRIAEYSLKLMDIDADFLKIEELQYDSTLSLPSSEFSKIVRDLSQLSDSINIMITKETIKFVADGDIGSGSVIIKPFVDMEHPETSIKLEMDQPVDLTFGAKYLLDIIKGSSLSDRVGIRLSSEAPALFQFDLKSGFLQFFLAPKFNDEE
B3: mel-26 (Caenorhabditis elegans, UniProt Q94420); sequence looked up; chain MEPRIDGGVFIGGIGNSGNEMCSNGVPALGVSSQTEIKVEKVQHTWTVKNFSHCYQEYLENFVYLQRGDEQLTWSIKIYPKGNGENNKDFVFLCLNRVINNNVKAGKIGFKSQFKLRTAENKDIEMRIHPNPSHSDYVSYIKRDVLFPQIMPRDMIIVNVEIDVAVETITTTNEPIQFEPTNSEQQLIEDYQRLFSQELLCDFAINVNGKIIRAHKAVLAARSPVFNAMLTHQDTDEAKSSMMYINDMDYDVIYEMVYYIYCGRCNKDITDMATALLIAADKYRLEELKSHCEKYLVENINIENACSLLIIGDLYSAPKLRKRAVTYILARPKNVTGTPGWEDILKGHPNLITDIFSQIDRQSSTGATSSVSNLPGVPMDIPGITGNIVPPPSGL
B4: erenumab; V domains shown; sequence looked up; VH QVQLVESGGGVVQPGRSLRLSCAASGFTFSSFGMHWVRQAPGKGLEWVAVISFDGSIKYSVDSVKGRFTISRDNSKNTLFLQMNSLRAEDTAVYYCARDRLNYYDSSGYYHYKYYGMAVWGQGTTVTVSS; VL QSVLTQPPSVSAAPGQKVTISCSGSSSNIGNNYVSWYQQLPGTAPKLLIYDNNKRPSGIPDRFSGSKSGTSTTLGITGLQTGDEADYYCGTWDSRLSAVVFGGGTKLTVL
B5: TIMP3 24-144 (Homo sapiens, UniProt P35625); sequence looked up; chain CTCSPSHPQDAFCNSDIVIRAKVVGKKLVKEGPFGTLVYTIKQMKMYRGFTKMPHVQYIHTEASESLCGLKLEVNKYQYLLTGRVYDGKMYTGLCNFVERWDQLTLSQRKGLNYRYHLGCN
B6: GLI2 zinc finger , SNAP fusion 418-604 (Homo sapiens, UniProt P10070); Alexa-647 label; sequence looked up; chain KEDLDRDDCKQEAEVVIYETNCHWEDCTKEYDTQEQLVHHINNEHIHGEKKEFVCRWQACTREQKPFKAQYMLVVHMRRHTGEKPHKCTFEGCSKAYSRLENLKTHLRSHTGEKPYVCEHEGCNKAFSNASDRAKHQNRTHSNEKPYICKIPGCTKRYTDPSSLRKHVKTVHGPDAHVTKKQRNDVH
B7: EPB41 210-507 (Homo sapiens, UniProt P11171); sequence looked up; chain MHCKVSLLDDTVYECVVEKHAKGQDLLKRVCEHLNLLEEDYFGLAIWDNATSKTWLDSAKEIKKQVRGVPWNFTFNVKFYPPDPAQLTEDITRYYLCLQLRQDIVAGRLPCSFATLALLGSYTIQSELGDYDPELHGVDYVSDFKLAPNQTKELEEKVMELHKSYRSMTPAQADLEFLENAKKLSMYGVDLHKAKDLEGVDIILGVCSSGLLVYKDKLRINRFPWPKVLKISYKRSSFFIKIRPGEQEQYESTIGFKLPSYRAAKKLWKVCVEHHTFFRLTSTDTIPKSKFLALGSKF
B8: Il2 Q30W (Mus musculus, UniProt P04351); chain APTSSSTSSSTAEAQQQQQQQQQQQQHLEWLLMDLQELLSRMENYRNLKLPRMLTFKFYLPKQATELKDLQCLEDELGPLRHVLDLTQSKSFQLEDAENFISNIRVTVVKLKGSDNTFECQFDDESATVVDFLRRWIAFCQSIISTSPQ
B9: GCN4/KAR3/VIK1 353-729/341-647 C391L/C469A/C517A/C566V/C655V/E382C/C377V/C436A/C536A/C596A/C640A/K372C (Saccharomyces cerevisiae); M4M 10-Å cross-link; chain 1 SVKELEDKVEELLSKNYHLENEVARLKKLVKDTELGMKELNEILIKEETVRRTLHNELQCLRGNIRVYLRIRPALKNLENSDTSLINVNEFDDNSGVQSMEVTKIQNTAQVHEFKFDKIFDQQDTNVDVFKEVGQLVQSSLDGYNVAIFAYGQTGSGKTFTMLNPGDGIIPSTISHIFNWINKLKTKGWDYKVNAEFIEIYNENIVDLLRSDNNNKEDTSIGLKHEIRHDQETKTTTITNVTSVKLESEEMVEIILKKANKLRSTASTASNEHSSRSHSIFIIHLSGSNAKTGAHSYGTLNLVDLAGSERINVSQVVGDRLRETQNINKSLSVLGDVIHALGQPDSTKRHIPFRNSKLTYLLQYSLTGDSKTLMFVNISPSSSHINETLNSLRFASKVNSTRLVSRK; chain 2 SVKELEDKVEELLSKNYHLENEVARLKKLVSKQEKFYNDTYNTVEKELLRSRRLENSIIEQCGTMRVYAYVMEQNLPENLLFDYENGVITQGLSEHVYKFNRVIPHLKVSEDKFFTQEYSVYHDMALNQKKNFNLISLSTTPHGSLRESLIKFLAEKDTIYQKQYVITLQFVFLSDDEFSQDMLLDYSHNDKDSIKLKFEKHSISLDSKLVIIENGLEDLPLNFSADEHPNLPHSGMGIIKVQFFPRDSKSDGNNDPVPVDFYFIELNNLKSIEQFDKSIFKKESAETPIALVLKKLISDTKSFFLLNLNDSKNVNKLLTISEEVQTQLAKRKKKLT
B10: Homer1a; chain MGEQPIFSTRAHVFQIDPNTKKNWVPTSKHAVTVSYFYDSTRNVYRIISLDGSKAIINSTITPNMTFTKTSQKFGQWADSRANTVYGLGFSSEHHLSKFAEKFQEFKEAARLAKEKSQEKMELTSTPSQESAGGDLQSPLTPESINGTDDERTPDVTQNSEPRAEPTQNALPFPHRYTFNSAIMIK
Chain of UniProt Q8SPP9 (whole entry, looked up): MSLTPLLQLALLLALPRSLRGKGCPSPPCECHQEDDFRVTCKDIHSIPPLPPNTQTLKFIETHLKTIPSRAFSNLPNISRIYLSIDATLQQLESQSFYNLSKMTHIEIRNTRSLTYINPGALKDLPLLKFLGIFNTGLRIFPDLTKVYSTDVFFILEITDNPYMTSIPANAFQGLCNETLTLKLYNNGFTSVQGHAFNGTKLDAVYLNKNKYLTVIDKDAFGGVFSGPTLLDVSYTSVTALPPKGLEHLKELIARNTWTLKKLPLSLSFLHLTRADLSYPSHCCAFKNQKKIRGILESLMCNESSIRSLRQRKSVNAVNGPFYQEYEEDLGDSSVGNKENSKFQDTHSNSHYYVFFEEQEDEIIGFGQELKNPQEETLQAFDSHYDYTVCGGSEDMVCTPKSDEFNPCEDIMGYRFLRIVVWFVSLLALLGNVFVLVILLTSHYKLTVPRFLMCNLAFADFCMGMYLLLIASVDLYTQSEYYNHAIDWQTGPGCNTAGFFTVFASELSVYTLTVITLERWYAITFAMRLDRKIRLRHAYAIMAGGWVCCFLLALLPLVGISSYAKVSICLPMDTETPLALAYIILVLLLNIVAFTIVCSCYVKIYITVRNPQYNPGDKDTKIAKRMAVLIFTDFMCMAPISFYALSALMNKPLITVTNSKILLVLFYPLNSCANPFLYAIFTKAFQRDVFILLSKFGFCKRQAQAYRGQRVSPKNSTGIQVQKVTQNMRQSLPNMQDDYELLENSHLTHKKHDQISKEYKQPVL
Chain of UniProt P35555 (whole entry, looked up): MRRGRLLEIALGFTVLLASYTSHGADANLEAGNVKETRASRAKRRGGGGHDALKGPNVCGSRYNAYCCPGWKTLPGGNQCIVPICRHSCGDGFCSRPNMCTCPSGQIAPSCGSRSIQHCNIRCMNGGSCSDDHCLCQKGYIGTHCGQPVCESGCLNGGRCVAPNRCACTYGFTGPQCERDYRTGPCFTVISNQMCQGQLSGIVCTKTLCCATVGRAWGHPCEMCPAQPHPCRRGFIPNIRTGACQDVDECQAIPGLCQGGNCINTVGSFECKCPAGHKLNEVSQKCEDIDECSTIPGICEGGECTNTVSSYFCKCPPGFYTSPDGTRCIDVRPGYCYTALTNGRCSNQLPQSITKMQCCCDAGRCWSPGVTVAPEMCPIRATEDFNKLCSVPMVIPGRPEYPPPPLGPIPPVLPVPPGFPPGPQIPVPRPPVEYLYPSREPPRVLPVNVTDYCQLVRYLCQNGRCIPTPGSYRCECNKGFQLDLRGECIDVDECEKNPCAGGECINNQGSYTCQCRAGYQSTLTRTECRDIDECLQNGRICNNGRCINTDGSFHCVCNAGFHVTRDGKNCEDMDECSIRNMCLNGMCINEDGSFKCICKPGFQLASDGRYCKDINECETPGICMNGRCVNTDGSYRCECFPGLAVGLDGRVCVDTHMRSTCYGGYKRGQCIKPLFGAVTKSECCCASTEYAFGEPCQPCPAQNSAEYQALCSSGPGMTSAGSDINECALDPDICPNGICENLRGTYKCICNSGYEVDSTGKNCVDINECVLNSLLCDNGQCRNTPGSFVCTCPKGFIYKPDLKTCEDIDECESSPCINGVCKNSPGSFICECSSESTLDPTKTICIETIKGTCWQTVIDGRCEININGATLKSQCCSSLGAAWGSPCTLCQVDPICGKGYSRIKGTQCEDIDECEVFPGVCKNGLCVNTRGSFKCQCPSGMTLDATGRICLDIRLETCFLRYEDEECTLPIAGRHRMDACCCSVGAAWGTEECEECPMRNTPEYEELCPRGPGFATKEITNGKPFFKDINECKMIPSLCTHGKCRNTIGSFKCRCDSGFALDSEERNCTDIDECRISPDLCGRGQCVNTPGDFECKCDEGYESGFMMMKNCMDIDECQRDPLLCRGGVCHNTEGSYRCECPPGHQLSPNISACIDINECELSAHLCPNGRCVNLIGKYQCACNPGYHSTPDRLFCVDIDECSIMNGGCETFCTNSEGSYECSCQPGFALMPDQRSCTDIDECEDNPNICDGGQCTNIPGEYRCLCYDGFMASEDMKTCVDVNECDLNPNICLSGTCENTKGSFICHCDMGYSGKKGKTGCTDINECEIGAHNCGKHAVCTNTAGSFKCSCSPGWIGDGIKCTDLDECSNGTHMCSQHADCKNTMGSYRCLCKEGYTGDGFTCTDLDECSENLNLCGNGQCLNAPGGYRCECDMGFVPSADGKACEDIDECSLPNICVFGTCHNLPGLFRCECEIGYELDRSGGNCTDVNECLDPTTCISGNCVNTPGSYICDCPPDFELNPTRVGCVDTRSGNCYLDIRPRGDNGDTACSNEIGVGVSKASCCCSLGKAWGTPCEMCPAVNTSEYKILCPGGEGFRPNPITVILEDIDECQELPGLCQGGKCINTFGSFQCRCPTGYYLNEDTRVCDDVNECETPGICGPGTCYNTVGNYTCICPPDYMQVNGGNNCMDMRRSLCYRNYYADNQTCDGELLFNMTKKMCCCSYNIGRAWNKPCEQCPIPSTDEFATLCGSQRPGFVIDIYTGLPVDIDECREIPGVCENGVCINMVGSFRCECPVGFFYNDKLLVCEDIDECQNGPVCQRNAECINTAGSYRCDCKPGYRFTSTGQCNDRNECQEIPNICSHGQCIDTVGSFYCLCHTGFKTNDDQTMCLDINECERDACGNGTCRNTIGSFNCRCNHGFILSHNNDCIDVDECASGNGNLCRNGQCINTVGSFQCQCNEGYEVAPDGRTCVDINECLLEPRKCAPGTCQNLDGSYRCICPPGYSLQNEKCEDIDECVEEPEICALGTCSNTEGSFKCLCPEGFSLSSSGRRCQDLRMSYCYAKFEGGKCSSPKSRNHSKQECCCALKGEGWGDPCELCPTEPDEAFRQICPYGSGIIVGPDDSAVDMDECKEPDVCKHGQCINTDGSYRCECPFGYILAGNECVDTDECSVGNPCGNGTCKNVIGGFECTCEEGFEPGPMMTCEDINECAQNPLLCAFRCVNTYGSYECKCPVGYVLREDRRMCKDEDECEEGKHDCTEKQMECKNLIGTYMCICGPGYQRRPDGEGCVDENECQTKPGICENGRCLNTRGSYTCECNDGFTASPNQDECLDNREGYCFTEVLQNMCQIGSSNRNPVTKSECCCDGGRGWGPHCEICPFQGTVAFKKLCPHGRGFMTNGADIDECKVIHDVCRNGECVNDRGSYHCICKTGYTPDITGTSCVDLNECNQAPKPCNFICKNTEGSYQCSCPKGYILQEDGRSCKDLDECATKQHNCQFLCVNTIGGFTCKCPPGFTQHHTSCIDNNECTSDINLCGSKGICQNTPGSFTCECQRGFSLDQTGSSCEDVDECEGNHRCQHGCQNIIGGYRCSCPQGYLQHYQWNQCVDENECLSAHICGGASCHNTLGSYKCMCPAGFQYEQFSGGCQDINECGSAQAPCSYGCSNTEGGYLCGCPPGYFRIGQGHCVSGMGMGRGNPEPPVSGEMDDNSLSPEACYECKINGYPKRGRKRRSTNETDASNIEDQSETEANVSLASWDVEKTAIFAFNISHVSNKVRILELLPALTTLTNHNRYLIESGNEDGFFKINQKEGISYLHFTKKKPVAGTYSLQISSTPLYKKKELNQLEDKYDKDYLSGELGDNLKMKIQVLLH
Chain of UniProt P05230 (whole entry, looked up): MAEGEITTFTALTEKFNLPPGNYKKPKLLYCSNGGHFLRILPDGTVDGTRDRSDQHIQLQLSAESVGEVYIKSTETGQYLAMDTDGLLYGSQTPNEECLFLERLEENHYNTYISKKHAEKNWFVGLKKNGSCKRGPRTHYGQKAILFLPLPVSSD

| Molecule | target or system | test | system | conditions | how to read | quantity | value |
| --- | --- | --- | --- | --- | --- | --- | --- |
| Ac-NWKLLAKGLLIRERLKR-NH2 (XPC 847-863 (Homo sapiens); N-acetyl; C-terminal amide) | CETN1, phosphothreonine (Homo sapiens, UniProt Q12798) | ITC | peptide |  |  | ΔH | -30.4 kcal/mol |
| B1 (FGF6) | FGFR3 isoform IIIc | cell proliferation, MTT | BaF3-FGFR3c | 20 nM, 48 h, added: unmodified decamer 4.9 µg/mL | baseline: FGF 1 with heparin, higher = more proliferation | cell proliferation | 3% |
| B2 (RAD30/POL30 binary complex) | REV1, Cy5 label (Saccharomyces cerevisiae, UniProt P12689) | single-molecule TIRF |  | pH 7.5 |  | koff | 1.2 ± 0.1 s⁻¹ |
| YAKRKRKKREKLILTL (WDR3 D-site peptide (Homo sapiens)) | Mapk14, pT180, pY182 (Rattus norvegicus, UniProt P70618) | kinase activity, inhibitor, competitive kinase inhibition assay | peptide | added: ATP 1 mM |  | IC50 | 300 nM |
| B3 (mel-26) | mei-1/mei-2 S113A, phosphorylated by MBK-2 (Caenorhabditis elegans) | dot blot |  | 4 °C, native |  | binding | binds |
| B4 (erenumab) | CALCRL/RAMP3 on cells (Homo sapiens) | cAMP production, antagonist | antibody | weak antagonist, added: adrenomedullin |  | pA2 | 6.01 |
| Pcsk9 fragment (Mus musculus) | Ldlr (Mus musculus, UniProt P35951) | ELISA | plasma | CFA group |  | bound PCSK9 | 37.4 ng/mL |
| CDC48-A (Methanosarcina mazei) | 20S proteasome core particle (Methanosarcina mazei, UniProt Q8PTU1) | BODIPY-casein degradation, activator |  | 100 nM CP, added: ATP | baseline: MmCP alone, higher = more degradation | casein degradation | 2 fold |
| B5 (TIMP3 24-144) | ADAMTS4 213-837 (Homo sapiens, UniProt O75173) | inhibitor, steady-state kinetics |  | 1 h, 37 °C, apparent |  | Ki | 0.19 nM |
| fabF K65A/R68A/K69A (Escherichia coli) | acpP C12-acylated 1-78, C12 acyl on 4'-phosphopantetheine (Escherichia coli, UniProt P0A6A8) | holo-AcpP formation, HPLC |  | 10 µM, added: malonyl-CoA |  | condensation rate | 0.13 min⁻¹ |
| B6 | KIF7 1-543 (Homo sapiens, UniProt Q2M1P5) | TIRF microscopy | immobilised microtubules |  | baseline: without Kif7-DM, higher = more recruitment | relative recruitment | 3 fold |
| UGT1A9 (Homo sapiens, UniProt O60656) | O=C(/C=C/c1ccc(O)cc1)c1ccccc1 | steady-state kinetics |  | pH 7.4, 37 °C |  | Vmax | 5.48e-05 µmol/min/mg |
| B7 (EPB41 210-507) | MPP1 (Homo sapiens, UniProt Q00013) | SPR |  | 50-400 nM, pH 7.4, 25 °C |  | koff | 0.0047 s⁻¹ |
| MENVKKATATATWMVPTAQ (L3MBTL3 52-70 T62A (Homo sapiens, UniProt Q96JM7-2); sequence looked up) | Rbpj | ITC | peptide | pH 6.5, 25 °C, NaCl 150 mM |  | ΔH | -13.7 kcal/mol |
| B8 (Il2 Q30W) | Il2rb (Mus musculus, UniProt P16297) | flow cytometry | mouse splenocytes |  | baseline: wildtype IL2, higher = greater increase | pSTAT5+ CD8 T cells | 100 fold |
| B9 | microtubules tubulin polymer | TIRF motility assay |  | 20 min | higher = more stopped | stopped microtubules | 80% |
| FGF1 (Homo sapiens, UniProt P05230) | FGFR3 isoform IIIc | cell proliferation, MTT | BaF3-FGFR3c | 20 nM, 48 h, added: heparan sulfate 4.9 µg/mL | baseline: FGF 1 with heparin, higher = more proliferation | cell proliferation | 47% |
| B10 (Homer1a) | Grm5 (Rattus norvegicus, UniProt P31424-2) | BRET |  | in spine, single-cell imaging | baseline: mean BRET in shaft, higher = more interaction | BRET ratio | 101% |
| TFPI (Homo sapiens, UniProt P10646-1) | F3/F7 TF-fVIIa complex (Homo sapiens) | factor Xa generation | EA.hy926 | LPS-treated, endogenous TF, α-cyclodextrin, control |  | maximum factor Xa generated | 26.5 nM |
| FGF8b (Homo sapiens) | FGFR3 isoform IIIc | cell proliferation, MTT | BaF3-FGFR3c | 20 nM, 48 h, added: heparan sulfate 4.9 µg/mL | baseline: FGF 1 with heparin, higher = more proliferation | cell proliferation | 103% |
| MENVKKATRTTTWMVPTAQ (L3MBTL3 52-70 A60R (Homo sapiens, UniProt Q96JM7-2); sequence looked up) | Rbpj | ITC | peptide | pH 6.5, 25 °C, NaCl 150 mM |  | ΔH | -15.7 kcal/mol |
| ITGAV/ITGB3 mature heterodimer (Homo sapiens) | FBN1 1486-1605 (Homo sapiens, UniProt P35555) | cell spreading | BHK | 1 µM | higher = more spread cells | cell spreading | 70% |
| CGA/TSHB, 125I label (Bos taurus) | TSHR (Sus scrofa, UniProt Q8SPP9) | radioligand binding | solubilized porcine thyroid membrane |  | baseline: negative reference serum, higher = more bound tracer | PEG-precipitable radioactivity | 8200 cpm |
| MMP2 fragment F297A (Homo sapiens) | COL1A1/COL1A2 denatured, gelatin (Homo sapiens) | DQ-gelatin fluorescence |  | 10 nM, 25 °C | higher = faster hydrolysis | hydrolysis rate | 0.213 RFU/s |

For quick reference, copied from above:
| Molecule | target or system | test | system | conditions | how to read | quantity | value |
| --- | --- | --- | --- | --- | --- | --- | --- |
| FGF1 (Homo sapiens, UniProt P05230) | FGFR3 isoform IIIc | cell proliferation, MTT | BaF3-FGFR3c | 20 nM, 48 h, added: heparan sulfate 4.9 µg/mL | baseline: FGF 1 with heparin, higher = more proliferation | cell proliferation | 47% |
| B6 | KIF7 1-543 (Homo sapiens, UniProt Q2M1P5) | TIRF microscopy | immobilised microtubules |  | baseline: without Kif7-DM, higher = more recruitment | relative recruitment | 3 fold |
| CDC48-A (Methanosarcina mazei) | 20S proteasome core particle (Methanosarcina mazei, UniProt Q8PTU1) | BODIPY-casein degradation, activator |  | 100 nM CP, added: ATP | baseline: MmCP alone, higher = more degradation | casein degradation | 2 fold |
| B5 (TIMP3 24-144) | ADAMTS4 213-837 (Homo sapiens, UniProt O75173) | inhibitor, steady-state kinetics |  | 1 h, 37 °C, apparent |  | Ki | 0.19 nM |
